Measurements pooled from the literature.
Each numbered part is a random draw from the data of one study; scales do not carry over between parts. Positions count from the first letter of the parent shown.

Block 1
Target: Prothrombin, mature alpha-thrombin (F2, Homo sapiens, UniProt P00734)
Technique: aptamer microarray, sandwich
Molecule type: DNA with 2'F-ANA
Matrix: in vitro
Tested at: 200 nM
Setting: whole 15-mer aptamer, many near background
With: Cy3 exosite-II aptamer, 400 nM
Reading: higher = stronger binding
Oligonucleotide: GGTTGGTGTGGTTGG
Modification | mean fluorescence intensity
2'F-ANA at 1 3 5 6 14 | 47.3 a.u.
2'F-ANA at 1 3 6 7 8 9 13 15 | 222 a.u.
2'F-ANA at 1 2 3 4 6 7 9 10 11 12 13 | 67.1 a.u.
2'F-ANA at 1 3 4 5 6 7 8 9 11 12 14 | 48.7 a.u.
2'F-ANA at 1 2 3 5 6 11 12 | 173 a.u.
2'F-ANA at 1 2 4 5 6 8 9 15 | 64.1 a.u.
2'F-ANA at 3 10 11 14 | 448 a.u.
2'F-ANA at 1 3 4 5 7 8 9 10 13 15 | 47.4 a.u.
2'F-ANA at 1 3 4 6 7 8 10 11 12 13 14 | 52.9 a.u.
2'F-ANA at 1 4 6 7 10 11 | 47 a.u.
2'F-ANA at 2 3 6 7 9 11 13 14 | 281 a.u.
2'F-ANA at 1 2 4 5 6 7 9 11 12 14 15 | 54.8 a.u.

Block 2
Target: CCND3, cyclin fold, Cln2 fusion (human)
Technique: yeast growth competition, sequencing
Matrix: yeast
Setting: weak parent motif
Baseline: not given
Reading: higher = stronger binding
Parent: RBL2 docking peptide (human); STTRRRLFVENDS
Substitution | normalised enrichment score
R6G | 0.0682
S1T | -0.0196
F8E | 0.0182
D12V | 0.106
E10F | 0.16
E10T | -0.0295
V9S | 0.183
T2V | 0.139
R5A | -0.00239
E10I | 0.0117
R6K | 0.125
L7Q | 0.0989
V9M | 0.137
R4W | 0.104
T2E | 0.127
R4K | 0.12
R4E | 0.0465
N11Q | 0.108

Block 3
Target: Sal-like protein 4, full length isoform A (SALL4, Homo sapiens, UniProt Q9UJQ4, residues 1-1053)
Sequence of UniProt Q9UJQ4 (whole entry, looked up): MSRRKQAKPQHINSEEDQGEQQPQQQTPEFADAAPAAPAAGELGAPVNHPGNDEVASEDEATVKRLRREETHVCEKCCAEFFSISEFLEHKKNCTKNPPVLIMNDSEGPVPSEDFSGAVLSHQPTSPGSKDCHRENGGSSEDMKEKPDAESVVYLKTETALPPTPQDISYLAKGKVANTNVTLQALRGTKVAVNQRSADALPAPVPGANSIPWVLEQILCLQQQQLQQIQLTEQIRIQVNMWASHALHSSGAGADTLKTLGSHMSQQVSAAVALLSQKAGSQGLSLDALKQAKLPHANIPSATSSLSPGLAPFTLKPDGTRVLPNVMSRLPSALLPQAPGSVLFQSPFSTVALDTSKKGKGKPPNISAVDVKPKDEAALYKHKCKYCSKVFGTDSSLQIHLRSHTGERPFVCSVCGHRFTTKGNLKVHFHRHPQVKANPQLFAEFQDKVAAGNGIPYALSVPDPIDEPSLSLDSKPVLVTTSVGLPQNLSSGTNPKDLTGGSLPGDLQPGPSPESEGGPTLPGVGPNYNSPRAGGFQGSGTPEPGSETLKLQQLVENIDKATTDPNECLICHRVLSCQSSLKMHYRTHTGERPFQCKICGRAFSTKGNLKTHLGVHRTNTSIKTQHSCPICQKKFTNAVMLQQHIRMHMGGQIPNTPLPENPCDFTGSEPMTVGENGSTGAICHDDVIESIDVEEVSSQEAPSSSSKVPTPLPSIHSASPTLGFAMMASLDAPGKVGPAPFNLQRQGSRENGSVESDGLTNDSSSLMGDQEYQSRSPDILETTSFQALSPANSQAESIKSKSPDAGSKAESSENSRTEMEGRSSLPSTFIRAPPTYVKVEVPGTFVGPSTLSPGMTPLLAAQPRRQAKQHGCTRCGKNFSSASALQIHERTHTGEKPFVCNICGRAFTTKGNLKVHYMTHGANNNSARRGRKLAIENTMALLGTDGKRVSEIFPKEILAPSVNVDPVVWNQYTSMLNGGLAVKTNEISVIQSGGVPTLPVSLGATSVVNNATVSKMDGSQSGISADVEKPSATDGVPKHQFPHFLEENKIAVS
Technique: universal PBM
Molecule type: double-stranded DNA, one strand shown
Matrix: in vitro
Tested at: 600 nM
Setting: 8-mer, flanks averaged, mean of replicates
Reading: higher = stronger binding
Oligonucleotide | E-score
CAAGCTAA | -0.19
AGTGATGA | 0.0937
ACTAGGCG | 0.049
CAAACGAG | -0.0565
AATGACGT | 0.126
GCCCCTTA | -0.175
CGTTCATA | 0.208
AGTGAATG | 0.0866
ACGGGCGC | -0.27
CTACCAAG | -0.059
TTAAATAA | 0.341
GATTGATA | 0.237
AAGTTTCG | -0.059
ACTGTGAT | 0.0799
GACGTCGC | -0.352
GTCATGAC | 0.0132
CGGTTGAG | -0.0889
CCTTATAA | 0.258

Mixed results
Substance | target | assay | test system | setting | how to read | quantity | result
PhoQ, residues 284 288 289 292 302 303 TNSAEL | PhoP, residues 12 14 15 18 19 NMSSL (Escherichia coli, UniProt P23836) | Sort-seq, item: YFP reporter | E. coli | PhoQ-PhoP variant library, with: 10 µM Mg2+ | baseline: high Mg2+ state, higher = stronger signaling | fold induction | 9.05

A few entries again (block 2):
Substitution | normalised enrichment score
E10F | 0.16
E10T | -0.0295
V9S | 0.183
T2V | 0.139
R5A | -0.00239
E10I | 0.0117
R6K | 0.125
